{"data": "Assay results from different studies", "note": "Protocols differ between the studies behind these lines. ± gives the spread as reported."}
{"Compound": "CN1CC[C@]23c4c5ccc(O)c4O[C@H]2[C@@H](O[C@@H]2O[C@H](C(=O)O)[C@@H](O)[C@H](O)[C@H]2O)C=C[C@H]3[C@H]1C5", "assay": "LC-MS/MS", "system": "male Sprague-Dawley rat, whole blood", "setting": "intraperitoneal, 10 mg/kg of heroin", "endpoint": "half-life", "result": "0.88 ± 0.155 h"}
{"Compound": "CCOc1ccccc1CNCc1cccn1-c1nnc(N2CCN(c3ccccc3)CC2)s1", "target or system": "Vero-E6", "assay": "CellTiter-Glo ATP", "setting": "concentration not given, 72 h, first round 5-point", "scale": "baseline: DMSO 0%, hyamine -100%, more negative, more toxic", "endpoint": "cytotoxicity efficacy", "result": "-25.1%"}
{"Compound": "COC(=O)[C@H]1[C@@H](OC(=O)c2ccccc2)C[C@@H]2CC[C@H]1N2C", "assay": "LC-MS/MS", "system": "Sprague-Dawley rat, male, whole blood", "setting": "intraperitoneal, 20 mg/kg", "endpoint": "half-life", "result": "0.498 ± 0.0297 h"}
{"Compound": "CC(C)[C@@H](CN1CC[C@@](C)(c2cccc(O)c2)[C@@H](C)C1)NC(=O)[C@@H]1Cc2ccc(O)cc2CN1C", "system": "rat, brain", "setting": "intraperitoneal, 5 mg/kg", "endpoint": "half-life", "result": "24.3 h"}
{"Compound": "COC[C@@]12CC[C@H](OC)[C@]34C(C([C@H](OC)[C@H]13)[C@]1(OC(C)=O)[C@H]3[C@@H](OC(=O)c5ccccc5)[C@](O)(C[C@H]34)[C@@H](OC)[C@@H]1O)N(C)C2", "system": "Sprague-Dawley rat, plasma", "setting": "oral, dose not given, with NADES in PCW extract", "endpoint": "half-life", "result": "3.57 ± 1.33 h"}
{"Compound": "O=C(O)CCC(CP(=O)(O)O)C(=O)O (stereo not shown)", "system": "rat Wistar male, plasma", "setting": "intraperitoneal, 100 mg/kg", "endpoint": "half-life", "result": "0.64 h"}
{"Compound": "COC[C@]12CN(C)[C@@H]3[C@@H]4[C@H](OC)[C@H]1[C@@]3([C@@H](OC)C[C@H]2O)[C@@H]1C[C@@]2(O)[C@H](OC(=O)c3ccccc3)[C@@H]1[C@]4(OC(C)=O)[C@@H](O)[C@@H]2OC", "system": "Sprague-Dawley rat, plasma", "setting": "oral, dose not given, in PCW extract", "endpoint": "half-life", "result": "8.8 ± 4.51 h"}
{"Compound": "COc1cccc([C@]2(C)CCN(C[C@@H](NC(=O)[C@H]3Cc4ccc(O)cc4CN3)C(C)C)C[C@@H]2C)c1", "system": "rat, brain", "setting": "intraperitoneal, 5 mg/kg", "endpoint": "half-life", "result": "29.5 h"}
{"Compound": "[Se]", "system": "rat, plasma", "setting": "intraperitoneal, 1 mg/kg, sodium selenate", "endpoint": "half-life", "result": "4.3 h"}
{"Compound": "COc1ccc2c(c1)CN[C@@H](C(=O)N[C@H](CN1CC[C@@](C)(c3cccc(O)c3)[C@@H](C)C1)C(C)C)C2", "system": "Sprague-Dawley rat, brain", "setting": "intraperitoneal, 5 mg/kg", "endpoint": "half-life", "result": "76.2 h"}
{"Compound": "CC(=O)c1c([O-])cc(C)oc1=O.[Na+]", "system": "male Wistar rat, plasma", "setting": "oral, 200 mg/kg, no CYP inhibitor", "endpoint": "half-life", "result": "9.21 ± 1.25 h"}
{"Compound": "O=[Se](=O)([O-])[O-].[Na+].[Na+]", "system": "rat", "setting": "intraperitoneal, 1 mg/kg", "endpoint": "half-life", "result": "2.25 h"}
{"Compound": "CSCC[C@H](NC(=O)COCCOCCNC(=O)COCCOCCNC(=O)CC[C@H](NC(=O)CCCCCCCCCCCCCCCCC(=O)O)C(=O)O)C(=O)N[C@H]1CSSC[C@@H](C(=O)NCC(=O)N[C@@H](CO)C(=O)NCC(=O)N[C@@H](CO)C(=O)N[C@@H](CC(=O)O)C(=O)N[C@@H](Cc2ccc(O)cc2)C(=O)N[C@@H](CCCCN)C(=O)N[C@@H](CC(=O)O)C(=O)N[C@@H](CC(=O)O)C(=O)N[C@@H](CC(=O)O)C(=O)N[C@@H](CC(=O)O)C(=O)N[C@@H](CCCCN)C(N)=O)NC(=O)[C@H](Cc2ccccc2)NC(=O)[C@@H]2CCCN2C(=O)[C@H](Cc2c[nH]c3ccccc23)NC(=O)[C@H](CC(C)C)NC(=O)[C@H](CCSC)NC(=O)[C@H](Cc2c[nH]cn2)NC(=O)[C@H](Cc2ccccc2)NC(=O)[C@H](Cc2c[nH]cn2)NC(=O)[C@H]([C@@H](C)O)NC(=O)[C@H](Cc2ccccc2)NC1=O", "system": "Sprague-Dawley rat, male, plasma", "setting": "intravenous", "endpoint": "half-life", "result": "10.7 h"}
{"Compound": "CC(C)[C@@H](CN1CC[C@@](C)(c2cccc(O)c2)[C@@H](C)C1)NC(=O)[C@@]1(C)Cc2ccc(O)cc2CN1", "system": "rat, brain", "setting": "intraperitoneal, 5 mg/kg", "endpoint": "half-life", "result": "30.7 h"}
{"Compound": "CCc1ccccc1N1CC(c2nc3ccccc3n2CCCCOc2ccccc2OC)CC1=O (stereo not shown)", "target or system": "Vero-E6", "assay": "CellTiter-Glo ATP", "setting": "concentration not given, 72 h, first round 5-point", "scale": "baseline: DMSO 0%, hyamine -100%, more negative, more toxic", "endpoint": "cytotoxicity efficacy", "result": "-10.6%"}
{"Compound": "CN1CC[C@]23c4c5ccc(O[C@@H]6O[C@H](C(=O)O)[C@@H](O)[C@H](O)[C@H]6O)c4O[C@H]2[C@@H](O)C=C[C@H]3[C@H]1C5", "system": "Sprague-Dawley rat, whole blood", "setting": "intraperitoneal, 10 mg/kg heroin, single heroin dose alone", "endpoint": "half-life", "result": "1.29 ± 0.236 h"}
{"Compound": "COc1ccc2c3c1O[C@H]1C[C@@H](OC(=O)c4ccccc4)C=C[C@@]31CCN(C)C2", "system": "Wistar rat, female, blood", "setting": "intravenous, 5.0 mg/kg", "endpoint": "half-life", "result": "0.91 h"}
{"Compound": "Cn1cccc1-c1cccnc1", "system": "rat", "setting": "intravenous, preliminary data, with: nicotine", "endpoint": "half-life", "result": "~2 h"}
{"Compound": "Cc1ccc(S(=O)(=O)Nc2c(N[C@H]3CC[C@H](NC(=O)Nc4ccc(F)c(Cl)c4)CC3)c(=O)c2=O)cc1", "system": "rat, plasma", "setting": "intravenous, 10 mg/kg", "endpoint": "half-life", "result": "1.52 h"}
{"Compound": "CN1[C@H]2CC[C@@H]1[C@@H](C(=O)O)[C@@H](OC(=O)c1ccccc1)C2", "assay": "LC-MS/MS", "system": "Sprague-Dawley rat, whole blood", "setting": "intraperitoneal, 20 mg/kg of cocaine", "endpoint": "half-life", "result": "2.7 ± 0.301 h"}
{"Compound": "NCCOCC(=O)N1CCCC(C(=O)NCc2nc(-c3ccc(-c4ccc(F)cc4)cc3)cs2)C1 (stereo not shown)", "system": "male Sprague Dawley rat", "setting": "intravenous, 1 mg/kg", "endpoint": "half-life", "result": "15 h"}
{"Compound": "CC(C)(C)[C@H](NC(=O)[C@H](CCONC(=N)N)NC(=O)Cc1ccc(CNC(=N)N)cc1)C(=O)N[C@@H](CCONC(=N)N)C(=O)NCc1ccc(C(=N)N)cc1", "system": "Sprague Dawley rat, male, plasma", "setting": "intravenous, 1 mg/kg", "endpoint": "half-life", "result": "3 h"}
{"note": "For quick reference, copied from above:"}
{"Compound": "Cc1ccc(S(=O)(=O)Nc2c(N[C@H]3CC[C@H](NC(=O)Nc4ccc(F)c(Cl)c4)CC3)c(=O)c2=O)cc1", "system": "rat, plasma", "setting": "intravenous, 10 mg/kg", "endpoint": "half-life", "result": "1.52 h"}
